Measured values of several laboratories.
Every numbered part comes from another study and shows a few of its results, in no order.

Set 1 — method: RNA Bind-n-Seq; molecule type: RNA; medium: in vitro; tested at: 200 nM; notes: whole 134-nt RNA, ends assumed; with: 150 mM LiCl; reference: input library; direction: higher = stronger binding; all molecules: 7-deaza-guanosine replaces G
Target: Ras GTPase-activating protein-binding protein 1, full length (G3BP1, Homo sapiens, UniProt Q13283)
Sequence of UniProt Q13283 (whole entry, looked up): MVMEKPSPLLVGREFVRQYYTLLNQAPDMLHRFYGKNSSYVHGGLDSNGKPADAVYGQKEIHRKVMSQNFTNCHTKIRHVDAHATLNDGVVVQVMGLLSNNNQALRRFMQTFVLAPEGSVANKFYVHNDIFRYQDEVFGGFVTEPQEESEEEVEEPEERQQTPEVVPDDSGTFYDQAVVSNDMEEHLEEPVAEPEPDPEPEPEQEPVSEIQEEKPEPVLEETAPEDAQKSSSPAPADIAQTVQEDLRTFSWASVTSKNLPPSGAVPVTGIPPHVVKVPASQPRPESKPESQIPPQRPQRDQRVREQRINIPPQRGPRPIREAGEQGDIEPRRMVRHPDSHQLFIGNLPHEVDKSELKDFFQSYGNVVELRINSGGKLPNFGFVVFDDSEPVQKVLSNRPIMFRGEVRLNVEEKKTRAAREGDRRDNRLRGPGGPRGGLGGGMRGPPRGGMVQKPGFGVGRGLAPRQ
| Sequence | log2 enrichment |
| --- | --- |
| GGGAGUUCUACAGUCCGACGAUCCACAGACAACACGCACCCACACAGACACAGAGGGAAGGGGUUGGUAUGGGGACAGGGUGCACAGCAGGGCGGGGUAGGACCCCAGCCCCUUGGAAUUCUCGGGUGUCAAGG | -1.55 |
| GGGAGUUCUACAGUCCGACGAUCCAAGUCCUGUGCUACACAUCGUAUGUACCGAAUCGGUGGUUUUUUUGGAAAAAGGAAAGUAUUAUGUUACGCCGUUCGGAUCUGCACUUCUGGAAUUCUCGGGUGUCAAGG | -0.478 |
| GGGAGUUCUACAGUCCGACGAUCUGCUGUUCAGGUGGUGGAGAAGAAGAUGGAACCCCAGGCUGCCUGGCUACAGAGCCUGGAGGGAUGCAUGUGGACAGCCAAGAAGAAGCUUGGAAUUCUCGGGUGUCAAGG | -1.38 |
| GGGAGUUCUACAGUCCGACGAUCAAGUCCUGUGCUACACAUCGUAUGUACCGAAUCGGGUGGGAAAAAGGGAAAAAGGGAAAGUAUUAUGUUACGCCGUUCGGAUCUGCACUUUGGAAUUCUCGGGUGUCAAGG | 0.237 |
| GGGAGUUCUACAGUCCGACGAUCCAAGUCCUGUGCUACACAUCGUAUGUACCGAAUCGGGGUUUGGUUUGGGGUUUGGGAAAGUAUUAUGUUACGCCGUUCGGAUCUGCACUUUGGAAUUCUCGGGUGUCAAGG | -1.46 |
| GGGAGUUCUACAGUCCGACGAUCCCUGUGCUACACAUCGUAUGUACCGAAUCGGGGUUUUUUUGGGGAAAAAGGGGUUUGGGGAAAGUAUUAUGUUACGCCGUUCGGAUCUGCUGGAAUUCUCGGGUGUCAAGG | -1.23 |
| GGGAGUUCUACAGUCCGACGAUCUAACUUUAGAGGAGGAUCUGAUGGAUAUGGCAGUGGACGUGGAUUUGGGGAUGGCUAUAAUGGGUAUGGAGGAGGACCUGGAGGCGGCAAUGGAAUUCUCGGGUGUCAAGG | 0.0574 |
| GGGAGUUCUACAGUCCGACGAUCCCUCAAGUCCUGUGCUACACAUCGUAUGUACCGAAUCGGAAGGGGAAGGAAGGAAAGUAUUAUGUUACGCCGUUCGGAUCUGCACUUCCAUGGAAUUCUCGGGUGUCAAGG | -1.16 |
| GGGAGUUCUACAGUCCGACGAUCACCAUGCAGGUGGGCUUCUUUGGGAAGUGGGGCAAGGGGGGGAUAGGGAGGGGGGUAACACUUUGGGAACAGGUGGUCCCAGGUCGUUUCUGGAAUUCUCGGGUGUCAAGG | -0.00865 |
| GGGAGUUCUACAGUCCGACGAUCAAGUCCUGUGCUACACAUCGUAUGUACCGAAUCGGAAAAAAAGGAGGUUUUUUUGGAAAGUAUUAUGUUACGCCGUUCGGAUCUGCACUUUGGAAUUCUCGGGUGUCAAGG | -1.44 |
| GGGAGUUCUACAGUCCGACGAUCUGGCCCUGGUGGCAUGCGGGGAGGAAGAGGUGGCCUCAUGGAUCGUGGUGGUCCGGGUGGAAUGUUCAGAGGUGGCCGUGGUGGAGACAGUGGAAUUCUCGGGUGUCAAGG | 0.377 |

Set 2 — method: RNA Bind-n-Seq; molecule type: RNA; medium: in vitro; tested at: 365 nM; reference: no-protein control; direction: higher = stronger binding
Target: RNA binding protein fox-1 homolog 2, RRM domain, GST-SBP tag (RBFOX2, Homo sapiens, UniProt O43251-10, residues 100-194)
Notes: natural RNA segment, single round, ends assumed
Construct (chain): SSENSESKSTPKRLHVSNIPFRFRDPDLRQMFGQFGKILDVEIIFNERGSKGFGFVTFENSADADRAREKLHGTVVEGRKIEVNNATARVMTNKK
| Sequence | RBNS enrichment (R) |
| --- | --- |
| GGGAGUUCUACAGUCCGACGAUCUUGUUGGGAUGACUGAUUGGGGCUAUCUGUUGUCAACAAGCGUCGUCUCCACCAUUGUGGAUGGAGGGGGUCUCUGUGCUAGGAGACUCUAUAGACUGCCUCCAGCCGCCUGGAAUUCUCGGGUGCCAA | 0.696 |
| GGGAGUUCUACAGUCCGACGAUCUUCCCCACCAGACCUUUGUAGCUCCUCCAGCCUCUGCAGAGACUCCCUUCACCUCGCACUUACUGCCUGGGAACCACGGCCCUUCUCUUCUGUGGGUCUGUACCAGGUACUGGAAUUCUCGGGUGCCAA | 0.736 |
| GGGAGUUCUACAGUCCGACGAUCUAGUUUUUUUUUUUACUGAAACUUGUUUUUGUGAAUACUCUGUGCUUAGAAUUAAAUAUCACUUUCUUAUGAACAACAUAACUUCUUCAGAUUGUGUAUAUGAAAACAUUUGGAAUUCUCGGGUGCCAA | 0.546 |
| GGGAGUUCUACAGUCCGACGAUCGCAAACUCUCCCAGCUCUGUGAAUCUACAGAAGAGGGGGUCAGGCUGAGGUGGUUGUGACCUGGAUCUUGAAGACUAAAAGACACAGAGUCUGCUGAGCUGCUCCUGUGCUGGAAUUCUCGGGUGCCAA | 0.337 |
| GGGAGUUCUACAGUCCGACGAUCCUGUCUUGCCAGAUUACCGACACUGUCACUUGACCAAUACUGACCCUCUUUACCUCGCCCACGCGGACACACGCCUCCUGUAGUCGCUUUGCCUAUUGAUGUUCCUUUGGUGGAAUUCUCGGGUGCCAA | 1.79 |
| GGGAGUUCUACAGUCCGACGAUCUGAGGAGGCAGGCGGCUGCUAGUUGUGGCCCUUCCUGGAAGGAGAGGCCUGCAGGGCUCGACCCUGUGGGUUUCUGUCCCCAGGGAGCAGACUGUGCGGCACCCAGGCCCUGGAAUUCUCGGGUGCCAA | 0.26 |
| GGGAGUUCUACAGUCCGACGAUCUUAAGUAGACUUUGGACCGUUAAGCUGGGCAAAGGAAAUGACAAGGGGACGGGGUCUGUGAGAGUCAAUUCAGGGGAAAGAUACAAGAUUGAUUUGUAAAACCCUUGAAAUGGAAUUCUCGGGUGCCAA | 1.1 |
| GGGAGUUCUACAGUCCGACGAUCUAGAAUAAAAUCUUAAAGCACUCAUAAUAUGGCAUCCUUCAAUUUCUGUAUAAAAGCAGAUCUUUUUAAAAAGAUACUUCUGUAACUUAAGAAACCUGGCAUUUAAAUCAUGGAAUUCUCGGGUGCCAA | 0.962 |
| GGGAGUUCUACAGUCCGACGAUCUAUUUCCAGCGUUAGAUUGAGGAUGAGGUAGGGAGGUGAUCCAGAGAAGGCGGAGAAGGAAGAAGUAACCUCUGAGUGGCGGCUAUUGCUUCUGUUCCAGGUGCUGUUCGUGGAAUUCUCGGGUGCCAA | 0.792 |
| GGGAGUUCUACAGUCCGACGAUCACACAGGUAAAAUGGUUACCCUCCCUUCUUUCCUCCCCUCUGCCUUCAUGGAUCACCAACUCACGUCAUGUUUCCUUCUCUUUUCUCUGUGUGUGUGUUUAUUUAAGUUAUGGAAUUCUCGGGUGCCAA | 1.53 |
| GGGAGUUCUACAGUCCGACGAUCAAGGUGUGGUUCUCAGUGCCUGUCAUUGAUGUGUGUUCCCGUGCCCAGGCUGUCUCAGUGUCAUCAUGUUGCCAGGUCUUUGUGUUUCUGCAGCCCACAUGAUCCUUGAGUGGAAUUCUCGGGUGCCAA | 0.355 |
| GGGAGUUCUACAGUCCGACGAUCAAAAGACAAUGUUAGUAAACUACAGGGAAGCACUGGAAGGGUAAAGCUCAGGUUAAUACAAGCUGAUUGUUCAGUGUCUUAAGACUUAUGCUGUUUCCAAAAGGCCAAAUUGGAAUUCUCGGGUGCCAA | 0.451 |

Set 3 — method: universal PBM; molecule type: double-stranded DNA, one strand shown; medium: in vitro; tested at: not given; direction: higher = stronger binding
Target: Sal-like protein 4, full length isoform B (SALL4, Homo sapiens, UniProt Q9UJQ4-2, residues 1-616)
Notes: 8-mer, flanks averaged, mean of replicates
Residues (chain): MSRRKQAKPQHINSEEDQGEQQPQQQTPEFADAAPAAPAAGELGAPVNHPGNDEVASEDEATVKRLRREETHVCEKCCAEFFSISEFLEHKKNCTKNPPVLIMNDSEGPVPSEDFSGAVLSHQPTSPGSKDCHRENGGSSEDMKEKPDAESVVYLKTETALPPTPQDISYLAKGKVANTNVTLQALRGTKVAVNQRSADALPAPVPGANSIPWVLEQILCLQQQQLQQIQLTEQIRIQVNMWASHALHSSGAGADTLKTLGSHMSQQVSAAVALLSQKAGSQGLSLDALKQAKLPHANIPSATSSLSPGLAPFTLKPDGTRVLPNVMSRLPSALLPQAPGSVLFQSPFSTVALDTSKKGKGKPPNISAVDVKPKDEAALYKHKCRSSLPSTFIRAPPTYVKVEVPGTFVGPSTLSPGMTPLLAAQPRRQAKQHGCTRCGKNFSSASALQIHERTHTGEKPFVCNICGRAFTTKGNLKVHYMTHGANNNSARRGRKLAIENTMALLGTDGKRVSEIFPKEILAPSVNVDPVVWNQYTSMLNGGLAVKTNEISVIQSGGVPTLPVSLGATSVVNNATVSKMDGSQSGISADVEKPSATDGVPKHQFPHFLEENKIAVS
| Sequence | E-score |
| --- | --- |
| CGGAGTAA | -0.105 |
| ATTGTGCG | 0.0481 |
| AACCCTCT | -0.0421 |
| ACTCAATA | 0.319 |
| ATAGACGA | 0.19 |
| ATAAGCGA | 0.202 |
| CCTGAGGC | -0.344 |
| CCCCTGCC | -0.205 |
| ACAACAGG | -0.0255 |
| CGGTGGCA | -0.267 |
| CATTGTGA | -0.176 |
| AAGAAGCG | -0.147 |
| GGTTGCGA | -0.0401 |
| GTCCGCTA | -0.122 |
| CGTATGGA | 0.0683 |
| CAATGTGG | -0.00149 |
| CGTAGATA | 0.106 |

Set 4 — method: protein binding microarray; molecule type: double-stranded DNA, one strand shown; medium: in vitro; tested at: not given; reference: not given; direction: higher = stronger binding
Target: Histone acetyltransferase KAT6A, winged helix 2, GST fusion (KAT6A, Homo sapiens, UniProt Q92794, residues 85-181)
Notes: 8-mer, flanks averaged, mean of 2 arrays, mostly near background
Target sequence (chain): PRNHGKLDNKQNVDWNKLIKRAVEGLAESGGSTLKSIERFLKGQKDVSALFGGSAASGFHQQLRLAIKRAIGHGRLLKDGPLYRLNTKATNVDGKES
| Sequence | E-score |
| --- | --- |
| CCCACACC | 0.135 |
| ATGTTGAG | -0.0613 |
| CACCTGCC | 0.16 |
| ATCGACAG | -0.0115 |
| GCGTCTAA | -0.0679 |
| ATAGCTAC | -0.0461 |
| AGCTGAAA | 0.037 |
| TACGGTAA | -0.131 |
| ATACCGAT | -0.0829 |
| AGTCACCC | 0.0846 |
| GGAATAAC | 0.00715 |
| GAATATAC | -0.266 |
| TGCGAACA | 0.0407 |
| CTAAGTGC | 0.0459 |
| CTCGCGGA | 0.0106 |
| TGAAAGCA | 0.158 |
| ATCCTATG | -0.126 |
| AAAATACC | 0.0296 |
| GAATGTCA | -0.12 |
| AACTTATA | 0.0112 |
